Published values of several laboratories.
Each line is one published result; not all experiments were run side by side. Values joined by “and” are separate records of one study, mostly repeats; a detail may differ. ± marks the error that the study gave.

O=C1C2CC3CC1CC(C(=O)N1CCN(c4ccc([N+](=O)[O-])c5ncccc45)CC1)(C3)C2
plasma concentration (male ICR mice, plasma; intravenous, 1 mg/kg, 0.0833 h): 497 ng/mL

O=C1CCC(N2Cc3cc(C(=O)O)c(F)cc3C2=O)C(=O)N1 (centres unmarked)
plasma concentration (CD-1 mice; intravenous, 1 mg/kg, 8 h): not detected

[2H]C([2H])([2H])C1(C([2H])([2H])[2H])NC(=O)N(c2ccc(F)c(C(C)(F)F)c2)C1=O
plasma concentration (male Swiss outbred mice, plasma; oral, 100 mg/kg, 24 h): 40200 ± 3340 ng/mL

C=C[C@]1(C)C[C@@H](OC(=O)CSc2ccc(NC(=O)c3ccco3)cc2)[C@]2(C)[C@H](C)CC[C@]3(CCC(=O)[C@H]32)[C@@H](C)[C@@H]1O
plasma concentration (Mycoplasma gallisepticum-infected chickens, plasma; intramuscular, 5 mg/kg, 8 h): 41.9 ng/mL and 13 ng/mL and 18.6 ng/mL and 27 ng/mL and 6.07 ng/mL and 46.1 ng/mL and 33.7 ng/mL and 30 ng/mL

Cc1noc(C)c1Cn1cc(N2C(=O)CN(Cc3cccc(OS(=O)(=O)O)c3)C2=O)cn1
plasma concentration (rat Sprague-Dawley male, plasma; oral, 100 mg/kg of parent drug, 0.5 h): 555 ± 153 ng/mL

COc1cc(N2CCN(C(=O)C3CCCN3)CC2)ccc1Nc1ncc(Cl)c(Nc2ccccc2P(C)(C)=O)n1 (centres unmarked)
plasma concentration (mice, plasma; oral, 10 mg/kg, 10 h): 117 ng/mL

CCC(=O)N(C)c1ccc(Cl)c(Cl)c1
plasma concentration (female C57BL/6 mice; intravenous, 2 mg/kg, 2 h): 22.4 ng/mL and 19.3 ng/mL

C[C@]12C[C@H](c3ccc(S(C)(=O)=O)cc3)C3=C4CCC(=O)C=C4CC[C@H]3[C@@H]1CC[C@@]2(O)C(F)(F)C(F)(F)F
plasma concentration (item: compound (parent); healthy human volunteers, pooled plasma; oral, 5 mg daily, day 28, 16 h): 13.6 ng/mL

O=C(NS(=O)(=O)c1cccs1)c1cc2ccccc2n1Cc1ccc(Br)c2ccccc12
plasma concentration (Sprague-Dawley rat, male; intravenous, dose not given, 2 h): 80.8 ng/mL

C=CC(=O)N1CCCC(n2c(=O)c3ncccc3n(Cc3ccc(Oc4ccccc4)cc3)c2=O)C1 (centres unmarked)
plasma concentration (male BALB/c mice, plasma; intraperitoneal, 200 mg/kg, 2 h): 26600 ng/mL and 38600 ng/mL

Cc1ncsc1-c1ccc(CNC(=O)[C@@H]2C[C@@H](O)CN2C(=O)[C@@H](NC(=O)COCC(C)(COCCOCCOCCNC(=O)C[C@@H]2N=C(c3ccc(Cl)cc3)c3c(sc(C)c3C)-n3c(C)nnc32)COCCOCCOCCNC(=O)C[C@@H]2N=C(c3ccc(Cl)cc3)c3c(sc(C)c3C)-n3c(C)nnc32)C(C)(C)C)cc1
plasma concentration (male C57BL/6 mice, plasma; subcutaneous, 5 mg/kg, 5 min): 478 ng/mL and 235 ng/mL and 245 ng/mL

Repeated from above:
O=C(NS(=O)(=O)c1cccs1)c1cc2ccccc2n1Cc1ccc(Br)c2ccccc12
plasma concentration (Sprague-Dawley rat, male; intravenous, dose not given, 2 h): 80.8 ng/mL
